Experimental data pooled from the literature.
Lines come from different studies, so protocols differ. Values joined by “and” are separate records of one study, mostly repeats; a detail may differ. ± gives the spread as reported.

| Structure (SMILES) | target or system | test | system | setting | scale | measurement | value |
| --- | --- | --- | --- | --- | --- | --- | --- |
| CSCCNc1nc(SCCC(F)(F)F)nc2c1ncn2[C@@H]1O[C@H](COP(=O)(O)OP(=O)(O)C(Cl)(Cl)P(=O)(O)O)[C@@H](O)[C@H]1O |  | light transmittance aggregometry | human patients, platelet-rich plasma | dose not given, 30 min, added: ADP 20 µM | relative to: patients | patients with IPA above 80% | 5% |
| CC[C@H](C)[C@H](NC(=O)[C@H](CCC(=O)O)NC(=O)[C@H](C)NC(=O)[C@@H](NC(=O)[C@H](Cc1c[nH]cn1)NC(=O)[C@H]1CCC[C@@H]1NC(=O)[C@H](CCC(=O)O)NC(=O)[C@H](C)NC(=O)[C@H]1CCC[C@@H]1NC(=O)[C@H](CC(C)C)NC(=O)[C@H](Cc1c[nH]cn1)NC(=O)[C@H](Cc1c[nH]cn1)NC(=O)[C@H]1CCC[C@@H]1NC(=O)[C@H](Cc1ccccc1)NC(=O)[C@H](Cc1ccccc1)NC(=O)[C@H](CCCNC(=N)N)NC(=O)[C@H](CCCNC(=N)N)NC(=O)[C@H](CCCNC(=N)N)NC(=O)[C@H]1CCC[C@@H]1NC(=O)[C@H](CC(=O)O)NC(=O)[C@H](CCC(N)=O)NC(=O)[C@@H](NC(=O)C[C@H](Cc1c[nH]c2ccccc12)NC(=O)[C@H](CCCCN)NC(=O)[C@@H](Cc1c[nH]c2ccccc12)NC(=O)[C@H](CC(C)C)NC(=O)[C@H](CC(=O)O)NC(=O)[C@H](Cc1c[nH]cn1)NC(=O)[C@H](CC(C)C)NC(=O)C[C@@H](N)CC(C)C)[C@@H](C)CC)[C@@H](C)O)C(N)=O |  |  | WT-hPTH1R mouse | subcutaneous, 500 nmol/kg |  | time to recovery of blood ionized calcium | 6 h |
| COc1cc2cc(-c3ccc(CC(=O)Nc4cc(C(C)(C)C(F)(F)F)no4)cn3)cnc2cc1OC |  | RECIST v1.1 | RET-altered advanced solid tumour patients | oral, 40 mg once daily, phase I |  | stable disease as best response | 67% |
| Cc1ccc(N(O)N=Nc2ccc(S(=O)(=O)Nc3onc(C)c3C)cc2)cc1 |  | carrageenan-induced paw edema | Wistar rat | oral, 100 mg/kg, 4 h after carrageenan, added: carrageenan 1% subplantar | higher = more edema | paw edema volume | 4.22 ± 0.89 a.u. |
| CO[C@H]1CC[C@H](N2C(=O)CNc3ncc(-c4ccc(C(C)(C)O)nc4)nc32)CC1 |  | flow cytometry | stimulated T cells, human, blood | 60 mg single dose, 24 h, median | relative to: baseline | p4EBP1 change from baseline | 6.2% |
| Cc1cc(NS(=O)(=O)c2ccc(N=NN(C)O)cc2)no1 |  | carrageenan-induced paw edema | Wistar rat | oral, 100 mg/kg, 4 h after carrageenan, added: carrageenan 1% subplantar | higher = more edema | paw edema volume | 4.18 ± 0.46 a.u. |
| NCC(=O)Nc1cncc(-c2nn3c(=O)cc(N4CCNCC4)nc3s2)c1 |  | ADP-induced platelet aggregation, light transmission aggregometry | human, stable CAD on aspirin, ex vivo platelets | subcutaneous, 0.05 mg/kg, 30 min post-dose, median value, added: ADP 20 µM |  | inhibition | 72.4% |
| Cc1cccc(N(O)N=Nc2ccc(S(=O)(=O)Nc3onc(C)c3C)cc2)c1 |  | carrageenan-induced paw edema | Wistar rat | oral, 100 mg/kg, 2 h after carrageenan, added: carrageenan 1% subplantar | higher = more edema | paw edema volume | 5.78 ± 0.66 a.u. |
| C[C@H]1C[C@H]2CSC(N)=N[C@@]2(c2nc(NC(=O)c3ccc(OC(F)F)cn3)cs2)CO1 |  | item: Aβx-40 | healthy adults, plasma | 3 mg single dose, 24 h post-dose | relative to: placebo | percent change from baseline | -25.1% |
| CC(C)C[C@H](NC(=O)[C@@H](Cc1c[nH]c2ccccc12)NC(=O)[C@H](Cc1ccc(O)cc1)NC(=O)[C@H](CO)NC(=O)[C@H](Cc1c[nH]c2ccccc12)NC(=O)[C@H](Cc1c[nH]cn1)NC(=O)[C@@H]1CCC(=O)N1)C(=O)N[C@@H](CCCNC(=N)N)C(=O)N1CCC[C@H]1C(=O)NCC(N)=O |  | Tanner staging | Chinese girls, central precocious puberty | intramuscular, 22.5 mg day 1, month 6, month 6 | relative to: baseline | stable pubic hair stage | 91.9% |
| C=CC(=O)N1CCC([C@@H]2CCNc3c(C(N)=O)c(-c4ccc(Oc5ccccc5)cc4)nn32)CC1 |  |  | human, relapsed/refractory B-cell malignancies | dose not given |  | time to response | 2.6 to 16.4 months |
| COc1c(C)cnc(Cn2cc(C#CCCOP(=O)(O)O)c3c(Cl)nc(N)nc32)c1C |  | RECIST | human | 96 mg/m2 |  | stable disease duration | 19 months |
| COc1nc(NCc2cn(-c3ccc(NC(=O)c4ccc(Cl)cc4)cc3)nn2)nc(OC)n1 |  | cell viability, MTT | normal colonocytes, rat | 72 h |  | IC50 | 18.3 ± 8.52 nM |
| N#CC[C@H](C1CCCC1)n1cc(-c2ncnc3[nH]ccc23)cn1 |  | phosphoflow cytometry, item: pS6 | patient plasma | concentration not given, C1D15 steady-state trough |  | inhibition range | -55.5 to 85.7% |
| N#Cc1ccc2c(-c3ccncc3)c(-c3ccc(F)cc3)nn2c1 |  | kinase binding, competitor, MIB/MS competition, item: PKH2 | Candida albicans cell lysate | 100 nM | relative to: DMSO | log2 fold change | 0.667 |
| CC#CC(=O)N[C@H]1CCCN(c2c(F)cc(C(N)=O)c3[nH]c(C)c(C)c23)C1 |  | item: IgA | human | 10 mg once daily, day 21 | relative to: baseline | serum immunoglobulin | -0.3 % change |
| Cc1c(C(=O)O)ccc2c3n(nc12)[C@@H]1[C@H](C3)N(CC2CC2)[C@@]2(C(=O)Nc3cc(Cl)ccc32)[C@H]1c1cccc(Cl)c1F |  | ELISA | human cancer patients, serum | 45 mg |  | time to peak serum GDF15 | 48 h |
| Cc1ccc(C(=O)OCc2ccc([C@@H](CN)C(=O)Nc3ccc4cnccc4c3)cc2)c(C)c1 |  | tonometry | NZW rabbit, magnetic bead-induced ocular hypertension | ocular, 0.02%, 48 h |  | IOP | 36.9 mmHg |
| CC(C)[C@H](C(=O)Nc1ccc(C(=O)NO)cc1)c1ccccc1 |  | volumetric MRI | human, left schwannoma | dose not given, day 64 | relative to: baseline | tumour volume change | -8.69% |
| COc1cc(Nc2ncc3c(n2)-c2ccc(Cl)cc2C(c2c(F)cccc2OC)=NC3)ccc1C(=O)O |  |  | mouse, OS-1 osteosarcoma xenograft | oral, 2.6 mg/kg, day 21 | relative to: vehicle | relative tumour volume T/C | 2.09 |

| Structure (SMILES) | target or system | test | system | setting | scale | measurement | value |
| --- | --- | --- | --- | --- | --- | --- | --- |
| CCCNc1nc(Nc2ccc(C#N)cc2)ncc1C#CCCCNC(=O)[C@H](C)N(C)C(=O)/C=C/CN(C)C |  |  | human | 50 mg twice daily, end of cycle 2 |  | marrow blasts | 3% |
| CN(O)N=Nc1ccc(S(=O)(=O)Nc2nccs2)cc1 |  | carrageenan-induced paw edema | Wistar rat | oral, 100 mg/kg, 4 h after carrageenan, added: carrageenan 1% subplantar | higher = more edema | paw edema volume | 4.59 ± 0.81 a.u. |
| N#Cc1ccc2c(c1)[C@H]1CCCN(C(=O)c3ccc4[nH]cnc4c3)[C@H]1C2 |  |  | human clinical trial | oral, 240 mg once daily, 28 d, meal tolerance test |  | 2 h postprandial glucose change | -2.5 mg/dL |
| CC(C)NCC(O)c1ccc(O)c(O)c1 (stereo not shown) |  |  | ventricular cardiomyocytes, C57BL/6 mouse | dose not given, 0.42 s |  | sarcomere length | 1.72 µm |
| CCc1c(C)nc(-c2ccc(Cl)s2)nc1Nc1ccc(CC(=O)O)cc1 |  |  | C57BL/6J mouse, high-fat diet MASH model | intraperitoneal, 0.3 mg/kg daily, 60% fat diet for 12 weeks, dosed final four weeks, added: glucose 2 g/kg ip | relative to: untreated | glucose tolerance AUC | no effect |
| Cc1cc(F)cc2c(CCC(=O)N[C@@H]3C(=O)NC[C@H]3O)c(-c3ccc(F)cc3)[nH]c12 |  |  | mice, APOL1 G2, single copy | oral, 30 mg/kg twice daily, day 8, dosing from day 6, added: IFNγ plasmid injection |  | UACR | 2300 µg/mg |
| Cc1cccc(N(O)N=Nc2ccc(S(=O)(=O)Nc3cc(C)on3)cc2)c1 |  | carrageenan-induced paw edema | Wistar rat | oral, 100 mg/kg, 4 h after carrageenan, added: carrageenan 1% subplantar | higher = more edema | paw edema volume | 4.4 ± 0.73 a.u. |
| CN(C)C(=O)c1cc2cnc(Nc3ccc(N4CCNCC4)cn3)nc2n1C1CCCC1 |  | RNA-seq GSEA, item: HALLMARK_PEROXISOME gene set | MB002 tumour | concentration not given | relative to: vehicle, direction not given | normalized enrichment score | 1.13 |
| O=C(O)c1cccc(-c2noc(-c3ccccc3F)n2)c1 |  | DCPIP reduction | K562 cell lysate | 40 mM |  | DR activity | 0.0121 OD/min and 0.0133 OD/min and 0.0132 OD/min |
| OC[C@H]1O[C@@H](c2ccc(Cl)c(Cc3ccc(O[C@H]4CCOC4)cc3)c2)[C@H](O)[C@@H](O)[C@@H]1O |  | fasting plasma glucose, exposure-response PK/PD model | type 2 diabetes patients | dose not given, bootstrap median |  | AUC50 | 704 nM·h |
| CCN(O)N=Nc1ccc(S(=O)(=O)Nc2nccs2)cc1 |  | carrageenan-induced paw edema | Wistar rat | oral, 100 mg/kg, 2 h after carrageenan, added: carrageenan 1% subplantar | higher = more edema | paw edema volume | 6.06 ± 1.66 a.u. |
| CCO[C@H]1CCN(Cc2c(OC)cc(C)c3[nH]ccc23)[C@H](c2ccc(C(=O)O)cc2)C1 |  |  | PNH patients, blood | oral, 50 mg then 200 mg, week 8, mean absolute change | relative to: baseline | C3d-positive type III RBCs | -1.7% |
| COc1ccc(-c2cncc(N[C@@H](C)c3cccc(NC(=O)c4cncc(C)c4)c3)n2)cc1OC |  | item: rno-miR-100-5p | rat SU5416/hypoxia model, lung | dose not given, unit not given | relative to: SU5416/hypoxia vehicle | delta delta Ct | 0.738 |
| NC(=NCCC[C@@H](C(=O)NCc1ccccc1)n1cc(-c2ccc(-c3ccccc3)cc2)nn1)c1ccc([N+](=O)[O-])o1 |  | STING signalling, inhibitor, ELISA | iBMDM, mouse, culture medium | dose not given, 24 h, added: diABZI 500 nM |  | IFN-beta secretion | inhibited |
| COC(=O)c1sc(-c2cccs2)cc1NC(=O)/C=C/C(=O)O |  | ELISA | bone marrow-derived macrophages, C57BL/6J mice | dose not given, 48 h, added: LPS 24 h |  | MCP-1 release | decreased |
| C=CCn1c(=O)c2cnc(Nc3ccc(N4CCN(C)CC4)cc3)nc2n1-c1ccc2c(n1)[C@@](O)(CC)CC2 |  |  | SW1463 xenograft, NCG mice | oral, 60 mg/kg days 0-11 then 80 mg/kg days 11-21, day 21, once daily |  | tumour volume difference | 994 ± 49 mm3 |
| Cc1c(C)n(Cc2cccc(OC(C)(C)C(=O)O)c2)c2ccc(C(=O)N[C@@H](C)c3ccc(C(C)(C)C)cc3)cc12 |  | indirect calorimetry | lean mice | dose not given, average over 72 h, end of treatment |  | VCO2 | 71.3 ± 6.12 mL/min/kg |
| c1ccc(-c2n[nH]cc2-c2ccnc3ccccc23)nc1 |  | kinase binding, competitor, MIB/MS competition, item: CEK1 | Candida albicans cell lysate | 1 µM | relative to: DMSO | log2 fold change | 1.54 |
| Cn1cc(-c2ccc(-c3cncc(Cl)c3N3CCC4(CCNC4=O)CC3)cc2)cn1 | COLO 205 | microarray, item: FosB |  | concentration not given, 2 h | relative to: untreated cells | fold change in expression | 1.4 |
| OC(CCN1CCCCC1)(c1ccccc1)C1CC2C=CC1C2 (stereo not shown) |  | resting-state EEG | healthy elderly humans | oral, 2 mg, eyes open, LS mean | relative to: baseline | change in EEG Alpha1-power Pz-O1 | 4.6% |

For quick reference, copied from above:
| Structure (SMILES) | target or system | test | system | setting | scale | measurement | value |
| --- | --- | --- | --- | --- | --- | --- | --- |
| NCC(=O)Nc1cncc(-c2nn3c(=O)cc(N4CCNCC4)nc3s2)c1 |  | ADP-induced platelet aggregation, light transmission aggregometry | human, stable CAD on aspirin, ex vivo platelets | subcutaneous, 0.05 mg/kg, 30 min post-dose, median value, added: ADP 20 µM |  | inhibition | 72.4% |
| Cc1cccc(N(O)N=Nc2ccc(S(=O)(=O)Nc3onc(C)c3C)cc2)c1 |  | carrageenan-induced paw edema | Wistar rat | oral, 100 mg/kg, 2 h after carrageenan, added: carrageenan 1% subplantar | higher = more edema | paw edema volume | 5.78 ± 0.66 a.u. |
